Experimental data gathered from unrelated publications.
Numbered parts are unrelated; each lists some results of a single study. Values joined by “and” are separate records of one study, mostly repeats; a detail may differ.
Sequence of UniProt O43353 (whole entry, looked up): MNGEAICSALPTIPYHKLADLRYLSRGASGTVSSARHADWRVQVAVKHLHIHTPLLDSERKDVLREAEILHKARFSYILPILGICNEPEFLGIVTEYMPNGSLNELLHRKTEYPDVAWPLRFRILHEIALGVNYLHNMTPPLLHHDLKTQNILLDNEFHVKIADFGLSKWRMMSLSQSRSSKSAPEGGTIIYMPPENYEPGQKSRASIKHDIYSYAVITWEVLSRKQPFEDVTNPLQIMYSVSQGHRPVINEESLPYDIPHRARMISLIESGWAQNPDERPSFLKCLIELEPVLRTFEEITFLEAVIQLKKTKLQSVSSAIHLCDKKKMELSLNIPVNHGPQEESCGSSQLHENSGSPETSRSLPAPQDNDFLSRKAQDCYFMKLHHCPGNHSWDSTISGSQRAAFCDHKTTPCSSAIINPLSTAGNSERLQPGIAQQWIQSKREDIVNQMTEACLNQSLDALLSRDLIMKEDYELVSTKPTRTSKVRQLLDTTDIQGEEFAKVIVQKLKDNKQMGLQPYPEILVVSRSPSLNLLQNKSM
Sequence of UniProt O75385 (whole entry, looked up): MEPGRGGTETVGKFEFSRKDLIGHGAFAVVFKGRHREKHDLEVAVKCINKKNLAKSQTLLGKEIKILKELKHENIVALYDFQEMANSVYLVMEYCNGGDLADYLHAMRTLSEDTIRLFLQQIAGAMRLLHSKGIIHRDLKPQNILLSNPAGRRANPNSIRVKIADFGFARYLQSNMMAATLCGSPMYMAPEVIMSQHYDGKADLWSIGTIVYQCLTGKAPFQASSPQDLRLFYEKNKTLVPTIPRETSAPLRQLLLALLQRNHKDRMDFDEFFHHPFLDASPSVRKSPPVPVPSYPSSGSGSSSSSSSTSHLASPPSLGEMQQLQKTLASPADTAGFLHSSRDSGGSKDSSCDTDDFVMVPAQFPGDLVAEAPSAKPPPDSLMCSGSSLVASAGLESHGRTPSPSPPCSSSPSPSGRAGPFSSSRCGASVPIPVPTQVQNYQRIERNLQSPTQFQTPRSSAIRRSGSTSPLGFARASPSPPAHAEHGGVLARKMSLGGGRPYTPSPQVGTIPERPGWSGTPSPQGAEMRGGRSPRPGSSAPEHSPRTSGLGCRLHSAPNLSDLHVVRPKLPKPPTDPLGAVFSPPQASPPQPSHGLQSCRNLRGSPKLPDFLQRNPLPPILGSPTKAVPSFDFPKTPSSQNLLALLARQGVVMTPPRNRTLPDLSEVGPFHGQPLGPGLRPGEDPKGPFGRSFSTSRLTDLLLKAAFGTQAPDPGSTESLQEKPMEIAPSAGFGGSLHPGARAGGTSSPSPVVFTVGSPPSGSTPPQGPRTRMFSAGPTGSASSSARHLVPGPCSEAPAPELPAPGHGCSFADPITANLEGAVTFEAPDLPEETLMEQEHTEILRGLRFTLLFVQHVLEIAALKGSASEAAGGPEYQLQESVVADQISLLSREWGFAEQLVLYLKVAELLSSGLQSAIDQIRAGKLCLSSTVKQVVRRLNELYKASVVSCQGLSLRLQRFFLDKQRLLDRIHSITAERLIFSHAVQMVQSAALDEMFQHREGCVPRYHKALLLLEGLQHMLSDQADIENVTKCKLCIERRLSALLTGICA
Sequence of UniProt Q99986 (whole entry, looked up): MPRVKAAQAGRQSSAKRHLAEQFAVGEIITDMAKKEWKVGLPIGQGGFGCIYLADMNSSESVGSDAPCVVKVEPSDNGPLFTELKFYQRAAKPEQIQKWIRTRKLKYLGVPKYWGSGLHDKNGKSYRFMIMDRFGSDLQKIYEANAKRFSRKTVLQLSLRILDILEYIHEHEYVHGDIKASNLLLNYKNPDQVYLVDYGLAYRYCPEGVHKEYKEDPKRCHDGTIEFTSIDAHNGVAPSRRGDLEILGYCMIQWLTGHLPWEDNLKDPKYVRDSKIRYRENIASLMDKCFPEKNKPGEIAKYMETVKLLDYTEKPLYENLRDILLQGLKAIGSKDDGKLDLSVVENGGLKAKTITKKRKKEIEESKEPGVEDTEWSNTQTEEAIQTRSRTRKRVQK

Study 1
Structure (SMILES): COC[C@H]1OC(=O)c2coc3c2[C@@]1(C)C1=C(C3=O)[C@@H]2CCC(=O)[C@@]2(C)C[C@H]1OC(C)=O
Effect on: enzyme activity
Mode: inhibitor
Tested at: 0.5 µM
Reference: control
target	remaining activity [%]
FGFR2 (Homo sapiens, UniProt P21802)	95.4
DYRK2 (Homo sapiens, UniProt Q92630)	111
ULK1 (Homo sapiens, UniProt O75385)	87.5
SGK3 (Homo sapiens, UniProt Q96BR1)	102
PHKG2 (Homo sapiens, UniProt P15735)	88.2
NTRK2 (Homo sapiens, UniProt Q16620)	99.9
RIPK2 (Homo sapiens, UniProt O43353)	99.7
TAOK1 (Homo sapiens, UniProt Q7L7X3)	113
PLK1 (Homo sapiens, UniProt P53350)	2.36
INSRR (Homo sapiens, UniProt P14616)	100
MAP3K9 (Homo sapiens, UniProt P80192)	91.6
VRK1 (Homo sapiens, UniProt Q99986)	101
MAP4K5 (Homo sapiens, UniProt Q9Y4K4)	95.6
PDGFRB (Homo sapiens, UniProt P09619)	98.1
PRKD3 (Homo sapiens, UniProt O94806)	94.2
RAF1 (Homo sapiens, UniProt P04049)	96
ACVR1 (Homo sapiens, UniProt Q04771)	93
TNK2 (Homo sapiens, UniProt Q07912)	102
DSTYK (Homo sapiens, UniProt Q6XUX3)	95.4
HCK (Homo sapiens, UniProt P08631)	91.3

Study 2
Target: Calcium/calmodulin-dependent protein kinase type II subunit alpha (CAMK2A, Homo sapiens, UniProt Q9UQM7)
Sequence of UniProt Q9UQM7 (whole entry, looked up): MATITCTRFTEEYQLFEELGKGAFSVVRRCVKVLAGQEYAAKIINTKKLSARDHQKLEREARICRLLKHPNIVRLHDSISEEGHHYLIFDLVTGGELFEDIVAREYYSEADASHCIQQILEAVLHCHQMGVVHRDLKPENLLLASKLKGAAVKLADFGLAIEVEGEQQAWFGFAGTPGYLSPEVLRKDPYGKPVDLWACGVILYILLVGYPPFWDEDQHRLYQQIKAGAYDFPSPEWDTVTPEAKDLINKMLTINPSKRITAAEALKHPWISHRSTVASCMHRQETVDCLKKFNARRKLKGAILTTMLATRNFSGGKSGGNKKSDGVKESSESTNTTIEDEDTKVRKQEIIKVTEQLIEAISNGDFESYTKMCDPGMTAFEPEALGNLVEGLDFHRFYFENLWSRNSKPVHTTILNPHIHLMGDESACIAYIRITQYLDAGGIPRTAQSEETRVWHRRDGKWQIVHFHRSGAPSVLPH
Effect on: enzyme activity
Mode: inhibitor
Tested at: 10 µM
SMILES	inhibition [%]
CC1(C)OC1COc1c2occc2cc2ccc(=O)oc12 (stereo not drawn)	-1
CCO[C@H]1O[C@@H]2O[C@@]3(C)CC[C@H]4[C@H](C)CC[C@@H]([C@H]1C)[C@@]24OO3	1
C[C@@H]1CC[C@@]2(NC1)O[C@H]1C[C@H]3[C@@H]4CC=C5C[C@@H](O)CC[C@]5(C)[C@H]4CC[C@]3(C)[C@H]1[C@@H]2C	-29
C#C[C@]1(O)C=C[C@H]2[C@@H]3CCC4=CC(=O)CC[C@@H]4[C@H]3CC[C@@]21CC	-10
C/C=C(\C)C(=O)O[C@@H]1C[C@H](O)[C@]23CO[C@H](C(=O)OC)[C@H]2[C@](C)([C@]24O[C@@]2(C)[C@H]2C[C@@H]4O[C@@H]4OC=C[C@@]42O)[C@H](O)[C@@H]2OC[C@@]1(C(=O)OC)[C@H]23	-5
C=C1[C@@H](O)[C@]2(O)OC[C@]34[C@H]2[C@@]2(C)[C@H](O)C(=O)C=C(C)[C@@H]2C[C@H]3OC(=O)[C@H](O)[C@@]14O	-20
CCC(=O)c1cc2c(cc1O)OCO2	-6
CC(CCc1ccccc1)NC(C)C(O)c1ccc(O)cc1 (stereo not drawn)	-5
C=C1[C@H](OC(C)=O)[C@@H](OC(=O)c2ccccc2)[C@@H](OC(C)=O)C(C)(C)[C@H]2O[C@](O)([C@H](C)C2=O)[C@@]2(OC(C)=O)C[C@H](C)[C@H](OC(C)=O)[C@@H]2[C@H]1OC(C)=O	14

Study 3
Target: DNA polymerase theta, ATPase domain (POLQ, Homo sapiens, UniProt O75417)
Sequence of UniProt O75417 (whole entry, unmodified, looked up): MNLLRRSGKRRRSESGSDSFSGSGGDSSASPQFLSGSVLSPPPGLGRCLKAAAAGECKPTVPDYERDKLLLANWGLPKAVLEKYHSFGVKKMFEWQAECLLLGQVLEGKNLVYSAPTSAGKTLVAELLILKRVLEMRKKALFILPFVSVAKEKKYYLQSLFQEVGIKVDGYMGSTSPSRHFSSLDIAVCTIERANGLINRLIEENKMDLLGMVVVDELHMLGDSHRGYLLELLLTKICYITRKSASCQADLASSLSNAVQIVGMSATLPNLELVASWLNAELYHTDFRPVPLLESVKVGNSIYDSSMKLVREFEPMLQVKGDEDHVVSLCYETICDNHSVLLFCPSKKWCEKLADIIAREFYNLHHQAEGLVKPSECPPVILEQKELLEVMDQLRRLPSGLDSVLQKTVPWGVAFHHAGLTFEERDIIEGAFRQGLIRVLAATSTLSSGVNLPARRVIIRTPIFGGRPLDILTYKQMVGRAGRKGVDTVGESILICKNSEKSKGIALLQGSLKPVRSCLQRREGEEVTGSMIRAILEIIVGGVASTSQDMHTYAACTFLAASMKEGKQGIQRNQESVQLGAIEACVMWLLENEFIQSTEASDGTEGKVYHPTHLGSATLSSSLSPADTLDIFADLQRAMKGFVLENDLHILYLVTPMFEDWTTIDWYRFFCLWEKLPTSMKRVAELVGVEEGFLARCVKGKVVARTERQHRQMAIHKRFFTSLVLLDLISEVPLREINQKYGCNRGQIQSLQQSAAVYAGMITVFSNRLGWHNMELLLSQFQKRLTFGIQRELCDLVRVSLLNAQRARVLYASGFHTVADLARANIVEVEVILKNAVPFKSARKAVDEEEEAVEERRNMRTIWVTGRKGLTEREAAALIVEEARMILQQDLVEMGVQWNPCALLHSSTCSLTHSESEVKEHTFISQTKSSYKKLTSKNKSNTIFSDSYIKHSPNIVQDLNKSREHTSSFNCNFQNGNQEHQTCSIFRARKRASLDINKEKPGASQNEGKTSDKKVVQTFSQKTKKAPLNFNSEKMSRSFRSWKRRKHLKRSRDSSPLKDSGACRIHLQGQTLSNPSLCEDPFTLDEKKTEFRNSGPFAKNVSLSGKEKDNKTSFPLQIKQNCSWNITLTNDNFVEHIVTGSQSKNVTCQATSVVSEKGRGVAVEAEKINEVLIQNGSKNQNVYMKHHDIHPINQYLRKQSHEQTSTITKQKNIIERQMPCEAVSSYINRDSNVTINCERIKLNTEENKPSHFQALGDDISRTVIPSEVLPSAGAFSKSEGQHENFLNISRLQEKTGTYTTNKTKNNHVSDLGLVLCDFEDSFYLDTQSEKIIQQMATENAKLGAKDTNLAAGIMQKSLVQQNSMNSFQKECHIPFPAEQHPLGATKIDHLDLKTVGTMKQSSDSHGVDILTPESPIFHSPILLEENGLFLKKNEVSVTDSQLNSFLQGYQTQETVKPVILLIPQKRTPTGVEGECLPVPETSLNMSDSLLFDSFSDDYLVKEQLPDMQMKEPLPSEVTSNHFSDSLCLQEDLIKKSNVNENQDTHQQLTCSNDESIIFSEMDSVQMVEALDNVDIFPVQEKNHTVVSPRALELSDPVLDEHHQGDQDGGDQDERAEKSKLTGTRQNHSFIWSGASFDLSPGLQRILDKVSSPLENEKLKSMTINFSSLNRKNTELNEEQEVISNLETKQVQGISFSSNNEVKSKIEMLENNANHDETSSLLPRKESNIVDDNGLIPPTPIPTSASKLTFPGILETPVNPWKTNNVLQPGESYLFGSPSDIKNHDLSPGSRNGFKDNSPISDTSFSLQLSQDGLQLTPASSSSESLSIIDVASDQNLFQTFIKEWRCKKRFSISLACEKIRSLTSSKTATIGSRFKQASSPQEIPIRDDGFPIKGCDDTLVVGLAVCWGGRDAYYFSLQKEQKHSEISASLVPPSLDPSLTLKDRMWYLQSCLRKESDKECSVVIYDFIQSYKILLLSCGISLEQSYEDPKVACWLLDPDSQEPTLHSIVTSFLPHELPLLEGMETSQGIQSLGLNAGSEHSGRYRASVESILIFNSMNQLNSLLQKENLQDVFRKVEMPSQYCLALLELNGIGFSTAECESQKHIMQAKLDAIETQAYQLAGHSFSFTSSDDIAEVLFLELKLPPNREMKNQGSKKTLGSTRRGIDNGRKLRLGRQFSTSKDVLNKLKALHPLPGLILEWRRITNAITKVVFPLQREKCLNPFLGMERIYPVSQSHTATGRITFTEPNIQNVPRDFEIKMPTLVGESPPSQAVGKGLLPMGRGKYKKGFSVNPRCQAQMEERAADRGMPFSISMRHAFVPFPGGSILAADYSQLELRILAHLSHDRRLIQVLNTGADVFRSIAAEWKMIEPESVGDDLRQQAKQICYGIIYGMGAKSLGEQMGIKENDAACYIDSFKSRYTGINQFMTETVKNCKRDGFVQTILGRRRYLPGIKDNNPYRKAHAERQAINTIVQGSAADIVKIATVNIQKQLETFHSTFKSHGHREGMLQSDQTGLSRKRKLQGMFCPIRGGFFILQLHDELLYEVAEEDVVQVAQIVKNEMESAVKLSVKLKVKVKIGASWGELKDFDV
Effect on: enzyme activity
Mode: inhibitor
Tested at: 77 µM
Reference: untreated
SMILES	remaining activity [%]
O=C[C@H](Cl)[C@@H](O)[C@H](O)[C@H](O)CO	113
COC1=CC(=O)O[C@@H](/C=C/c2ccccc2)C1	100
COc1cc2c(c(OC)c1OC)-c1ccc(O)c(=O)cc1[C@@H](N)CC2	106
C#CCN(C)[C@H](C)Cc1ccccc1	90.5
CCCCCC[C@H]1C(=O)O[C@H](C)[C@H](NC(=O)c2cccc(NC=O)c2O)C(=O)O[C@@H](C)[C@@H]1OC(=O)CC(C)C	98.2
CC(O)(CS(=O)(=O)c1ccc(F)cc1)C(=O)Nc1ccc(C#N)c(C(F)(F)F)c1 (stereo not drawn)	102
C[C@@H]1[C@H](O)[C@@H](C)/C=C/C=C/CC/C=C/C=C/C=C/C=C/C(O[C@H]2O[C@H](C)[C@@H](O)[C@H](N)[C@@H]2O)CC2O[C@](O)(CC(O)C(O)CCC(O)CC(O)CC(O)CC(=O)O[C@H]1C)CC(O)C2C(=O)O (stereo partly drawn)	99.9
C[C@H]1CNCCc2ccc(Cl)cc21	104
CC(C)=CCOc1c2occc2cc2ccc(=O)oc12	112
CC1=CC(=O)C2=C(C)C[C@H](O)[C@@H]3[C@H](OC(=O)[C@H]3C)[C@H]12	99.2

Study 4
SMILES: CC(=O)N[C@@H](Cc1c[nH]c2ccccc12)C(=O)N[C@@H](CCC(=O)C=[N+]=[N-])C(=O)OC(C)C
host	route	dose	time	notes	reference	body weight
C57BL/6 CES1-/- mouse, both sexes		0.1 mg/kg	day 17			109% and 105% and 100% and 118%
C57BL/6 CES1-/- mouse, both sexes		1 mg/kg	day 7			100%
C57BL/6 CES1-/- mouse, EL4 tumour	intravenous	1 mg/kg DON equivalent	treatment day 15	5 days per week	baseline	96% and 110% and 93% and 100% and 97%
C57BL/6 CES1-/- mouse, both sexes		0.3 mg/kg	day 16			104% and 95.7% and 100% and 96.4%
C57BL/6 CES1-/- mouse, both sexes		1 mg/kg	day 9			97% and 95.5% and 105% and 96.6% and 90.9%
C57BL/6 CES1-/- mouse, EL4 tumour	intravenous	1 mg/kg DON equivalent	treatment day 10	5 days per week	baseline	100% and 96% and 93% and 92% and 105%

Some of these lines once more (study 1):
target	remaining activity [%]
SGK3 (Homo sapiens, UniProt Q96BR1)	102
PHKG2 (Homo sapiens, UniProt P15735)	88.2
NTRK2 (Homo sapiens, UniProt Q16620)	99.9
